# Measurements from different studies.
# Every numbered part comes from another study and shows a few of its results, in no order.
# Chain of UniProt O75582 (whole entry, looked up): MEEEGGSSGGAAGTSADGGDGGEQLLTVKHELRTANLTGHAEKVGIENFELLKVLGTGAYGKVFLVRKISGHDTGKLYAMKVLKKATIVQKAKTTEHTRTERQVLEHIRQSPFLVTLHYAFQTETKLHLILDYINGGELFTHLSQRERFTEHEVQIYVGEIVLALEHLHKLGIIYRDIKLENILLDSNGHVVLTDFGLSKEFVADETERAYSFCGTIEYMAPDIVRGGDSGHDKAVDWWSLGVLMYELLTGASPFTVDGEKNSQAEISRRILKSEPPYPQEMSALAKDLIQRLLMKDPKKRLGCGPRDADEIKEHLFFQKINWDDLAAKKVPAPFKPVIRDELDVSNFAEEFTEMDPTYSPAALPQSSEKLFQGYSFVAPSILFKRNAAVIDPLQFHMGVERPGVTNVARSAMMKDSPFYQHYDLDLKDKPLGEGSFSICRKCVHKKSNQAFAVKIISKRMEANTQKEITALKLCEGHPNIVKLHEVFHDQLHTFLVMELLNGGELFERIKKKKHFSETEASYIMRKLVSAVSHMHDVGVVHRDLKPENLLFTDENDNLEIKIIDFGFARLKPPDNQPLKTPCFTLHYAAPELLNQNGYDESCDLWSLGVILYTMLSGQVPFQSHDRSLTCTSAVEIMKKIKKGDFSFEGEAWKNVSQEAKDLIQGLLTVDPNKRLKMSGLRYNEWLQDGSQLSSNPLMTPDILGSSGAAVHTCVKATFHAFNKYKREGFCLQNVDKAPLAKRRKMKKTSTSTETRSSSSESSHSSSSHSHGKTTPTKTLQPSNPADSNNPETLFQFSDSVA
# Chain of UniProt O43781 (whole entry, looked up): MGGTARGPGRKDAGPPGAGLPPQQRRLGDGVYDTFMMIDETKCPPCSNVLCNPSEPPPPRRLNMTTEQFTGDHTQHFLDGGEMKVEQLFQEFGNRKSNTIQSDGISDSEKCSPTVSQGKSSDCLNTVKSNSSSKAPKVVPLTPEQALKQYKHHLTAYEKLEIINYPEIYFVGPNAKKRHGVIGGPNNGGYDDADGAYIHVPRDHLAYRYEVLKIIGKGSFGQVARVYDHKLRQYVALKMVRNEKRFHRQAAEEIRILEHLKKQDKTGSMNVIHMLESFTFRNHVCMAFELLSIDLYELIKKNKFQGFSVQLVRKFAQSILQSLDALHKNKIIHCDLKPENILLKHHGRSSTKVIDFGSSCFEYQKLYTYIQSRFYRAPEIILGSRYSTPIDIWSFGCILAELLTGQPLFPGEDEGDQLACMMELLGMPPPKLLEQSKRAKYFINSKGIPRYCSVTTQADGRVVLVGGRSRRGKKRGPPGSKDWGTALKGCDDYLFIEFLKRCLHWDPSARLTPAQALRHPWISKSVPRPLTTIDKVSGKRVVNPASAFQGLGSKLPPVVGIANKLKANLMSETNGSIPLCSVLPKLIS
# Chain of UniProt Q02779 (whole entry, looked up): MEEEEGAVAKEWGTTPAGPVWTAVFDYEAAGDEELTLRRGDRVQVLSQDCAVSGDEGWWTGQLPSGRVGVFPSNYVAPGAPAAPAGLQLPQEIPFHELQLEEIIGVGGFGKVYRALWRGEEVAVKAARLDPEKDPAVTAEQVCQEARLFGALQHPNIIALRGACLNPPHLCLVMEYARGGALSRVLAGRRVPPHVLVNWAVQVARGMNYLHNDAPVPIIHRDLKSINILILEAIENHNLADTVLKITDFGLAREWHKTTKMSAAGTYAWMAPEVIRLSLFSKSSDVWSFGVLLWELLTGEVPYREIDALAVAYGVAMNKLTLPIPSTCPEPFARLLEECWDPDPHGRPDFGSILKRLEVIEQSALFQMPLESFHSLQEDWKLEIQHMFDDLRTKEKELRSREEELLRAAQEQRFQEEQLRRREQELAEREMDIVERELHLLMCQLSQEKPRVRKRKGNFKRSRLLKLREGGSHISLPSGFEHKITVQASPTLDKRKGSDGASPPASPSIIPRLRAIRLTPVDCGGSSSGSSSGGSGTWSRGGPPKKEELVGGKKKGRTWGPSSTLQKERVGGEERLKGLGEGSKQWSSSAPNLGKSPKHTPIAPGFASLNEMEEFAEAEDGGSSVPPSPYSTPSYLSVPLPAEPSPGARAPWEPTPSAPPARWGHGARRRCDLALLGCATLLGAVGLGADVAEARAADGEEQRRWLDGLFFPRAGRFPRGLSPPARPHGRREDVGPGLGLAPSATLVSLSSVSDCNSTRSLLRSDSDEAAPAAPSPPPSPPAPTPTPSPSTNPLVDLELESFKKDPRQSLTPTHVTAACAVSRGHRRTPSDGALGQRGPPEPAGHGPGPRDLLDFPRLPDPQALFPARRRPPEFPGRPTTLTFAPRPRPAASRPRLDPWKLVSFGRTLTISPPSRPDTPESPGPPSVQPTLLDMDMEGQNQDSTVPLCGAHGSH
# Chain of UniProt O15530 (whole entry, looked up): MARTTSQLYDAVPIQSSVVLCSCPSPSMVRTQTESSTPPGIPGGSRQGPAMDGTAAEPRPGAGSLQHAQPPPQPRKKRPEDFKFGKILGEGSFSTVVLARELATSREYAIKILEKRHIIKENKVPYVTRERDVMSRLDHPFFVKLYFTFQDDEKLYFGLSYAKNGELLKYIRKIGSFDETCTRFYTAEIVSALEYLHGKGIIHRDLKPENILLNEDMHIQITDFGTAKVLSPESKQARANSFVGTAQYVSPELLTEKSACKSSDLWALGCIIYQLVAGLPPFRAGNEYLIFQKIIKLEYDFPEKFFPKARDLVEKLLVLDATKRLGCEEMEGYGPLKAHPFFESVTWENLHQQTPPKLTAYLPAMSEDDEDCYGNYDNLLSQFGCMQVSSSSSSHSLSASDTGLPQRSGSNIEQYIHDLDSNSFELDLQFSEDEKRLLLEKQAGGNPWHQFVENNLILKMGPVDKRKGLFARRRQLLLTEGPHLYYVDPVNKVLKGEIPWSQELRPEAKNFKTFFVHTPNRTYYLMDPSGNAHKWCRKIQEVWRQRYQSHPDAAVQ
# Chain of UniProt Q9BXA7 (whole entry, looked up): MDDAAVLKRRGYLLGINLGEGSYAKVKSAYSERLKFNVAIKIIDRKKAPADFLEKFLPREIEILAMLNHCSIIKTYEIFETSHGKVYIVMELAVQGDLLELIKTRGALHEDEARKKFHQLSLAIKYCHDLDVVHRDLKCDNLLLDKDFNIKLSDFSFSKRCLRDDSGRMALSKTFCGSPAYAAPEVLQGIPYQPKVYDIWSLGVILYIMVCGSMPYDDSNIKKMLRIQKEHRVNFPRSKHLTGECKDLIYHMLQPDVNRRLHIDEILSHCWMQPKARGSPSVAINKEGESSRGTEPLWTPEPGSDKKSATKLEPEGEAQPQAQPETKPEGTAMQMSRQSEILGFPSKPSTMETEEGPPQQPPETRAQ
# Chain of UniProt Q8IY84 (whole entry, looked up): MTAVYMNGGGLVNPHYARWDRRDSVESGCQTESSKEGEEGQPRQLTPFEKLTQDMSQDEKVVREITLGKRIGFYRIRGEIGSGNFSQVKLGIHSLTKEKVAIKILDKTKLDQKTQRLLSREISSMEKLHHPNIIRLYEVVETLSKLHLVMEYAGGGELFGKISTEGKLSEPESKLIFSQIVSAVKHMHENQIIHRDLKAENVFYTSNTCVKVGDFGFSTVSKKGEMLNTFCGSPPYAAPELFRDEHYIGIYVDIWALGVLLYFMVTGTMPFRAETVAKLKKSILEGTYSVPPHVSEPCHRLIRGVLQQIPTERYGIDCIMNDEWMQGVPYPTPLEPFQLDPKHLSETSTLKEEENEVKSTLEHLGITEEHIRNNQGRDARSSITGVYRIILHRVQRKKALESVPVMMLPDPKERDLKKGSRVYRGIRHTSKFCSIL
# Chain of UniProt Q9Y2K2 (whole entry, looked up): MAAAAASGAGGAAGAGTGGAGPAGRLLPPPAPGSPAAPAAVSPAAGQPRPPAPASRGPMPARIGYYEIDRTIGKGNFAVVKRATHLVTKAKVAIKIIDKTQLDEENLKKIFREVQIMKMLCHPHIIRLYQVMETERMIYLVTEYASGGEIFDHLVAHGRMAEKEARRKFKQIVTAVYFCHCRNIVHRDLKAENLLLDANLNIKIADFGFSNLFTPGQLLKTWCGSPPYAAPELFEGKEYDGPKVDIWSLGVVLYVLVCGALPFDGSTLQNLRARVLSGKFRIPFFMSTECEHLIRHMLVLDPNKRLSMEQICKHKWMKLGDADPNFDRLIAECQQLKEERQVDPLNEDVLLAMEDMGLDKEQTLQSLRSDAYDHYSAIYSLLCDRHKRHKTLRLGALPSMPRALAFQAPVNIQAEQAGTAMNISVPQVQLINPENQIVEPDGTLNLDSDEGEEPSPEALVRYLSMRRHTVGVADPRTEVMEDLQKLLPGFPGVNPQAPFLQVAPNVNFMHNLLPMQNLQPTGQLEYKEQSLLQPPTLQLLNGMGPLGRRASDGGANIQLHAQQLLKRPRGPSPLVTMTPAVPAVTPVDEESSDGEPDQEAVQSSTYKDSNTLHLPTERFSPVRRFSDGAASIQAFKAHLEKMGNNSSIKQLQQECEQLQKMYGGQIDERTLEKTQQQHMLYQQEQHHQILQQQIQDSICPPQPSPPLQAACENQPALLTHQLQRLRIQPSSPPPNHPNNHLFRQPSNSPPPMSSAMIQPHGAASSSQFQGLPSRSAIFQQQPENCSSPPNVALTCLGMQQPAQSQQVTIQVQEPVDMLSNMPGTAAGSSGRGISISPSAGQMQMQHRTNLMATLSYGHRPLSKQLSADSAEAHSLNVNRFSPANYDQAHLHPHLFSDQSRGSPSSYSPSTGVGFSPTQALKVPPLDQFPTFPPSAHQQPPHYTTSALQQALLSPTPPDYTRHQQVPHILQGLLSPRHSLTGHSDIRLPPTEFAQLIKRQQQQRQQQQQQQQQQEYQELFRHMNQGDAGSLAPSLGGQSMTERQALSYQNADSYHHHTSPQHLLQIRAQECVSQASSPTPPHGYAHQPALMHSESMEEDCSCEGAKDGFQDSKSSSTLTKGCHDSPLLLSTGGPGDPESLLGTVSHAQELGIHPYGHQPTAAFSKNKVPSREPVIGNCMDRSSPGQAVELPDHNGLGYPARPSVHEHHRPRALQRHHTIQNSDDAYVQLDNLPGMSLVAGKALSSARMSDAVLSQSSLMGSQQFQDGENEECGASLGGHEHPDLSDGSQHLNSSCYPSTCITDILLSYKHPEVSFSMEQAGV

# Study 1
# Cell line: mouse MPNST tumor cells
# Technique: high-content immunofluorescence imaging
# Measured: nuclear SOX9
# Concentration: 10 µM
# Time: 12 h
# Setting: mean of 2 replicates
# Relative to: DMSO control
# Direction: higher = more nuclear SOX9
SMILES,nuclear SOX9 intensity
COc1cc2nc(N3CCN(C(=O)C4COc5ccccc5O4)CC3)nc(N)c2cc1OC (centres unmarked),169 % of DMSO
CC(C)C(=O)OCC(=O)[C@@]12O[C@H](C3CCCCC3)O[C@@H]1C[C@H]1[C@@H]3CCC4=CC(=O)C=C[C@]4(C)[C@H]3[C@@H](O)C[C@@]12C,93.7 % of DMSO
CCCCC(CC)CN1CN(CC(CC)CCCC)CC(C)(N)C1 (centres unmarked),118 % of DMSO
CC(C)(C)n1nc(-c2cccc3ccccc23)c2c(N)ncnc21,115 % of DMSO
C[C@@H]1CN(c2c(F)c(N)c3c(=O)c(C(=O)O)cn(C4CC4)c3c2F)C[C@H](C)N1,97.1 % of DMSO
O=c1[nH]c2cc(C(F)(F)F)c(N3CCOCC3)cc2n(CP(=O)(O)O)c1=O,95.8 % of DMSO
Oc1cccc(-c2nc(N3CCOCC3)c3oc4ncccc4c3n2)c1,88.4 % of DMSO
O=C(Nc1cccc2c(=O)cc(-c3nn[nH]n3)oc12)c1ccc(OCCCCc2ccccc2)cc1,106 % of DMSO

# Study 2
# SMILES: Cc1nccc(COC(=O)N2C[C@@H]3[C@@H](CNC(=O)c4ccc5[nH]nnc5c4)[C@@H]3C2)n1
# Observed: cell-free assay
# Technique: competition with immobilised ligand
# Concentration: 1 µM
target,remaining binding [%]
"PAK4 (Homo sapiens, UniProt O96013)",100
"HUNK (Homo sapiens, UniProt P57058)",81
"Ribosomal protein S6 kinase alpha-5, N-terminal kinase domain (RPS6KA5, Homo sapiens, UniProt O75582)",95
"NEK9 (Homo sapiens, UniProt Q8TD19)",100
"NIM1K (Homo sapiens, UniProt Q8IY84)",87
"TSSK1B (Homo sapiens, UniProt Q9BXA7)",91
"GRK4 (Homo sapiens, UniProt P32298)",100
"TAOK2 (Homo sapiens, UniProt Q9UL54)",91
"COQ8B (Homo sapiens, UniProt Q96D53)",100
"BTK (Homo sapiens, UniProt Q06187)",99
"STK25 (Homo sapiens, UniProt O00506)",100
"MAP3K10 (Homo sapiens, UniProt Q02779)",85
"SIK3 (Homo sapiens, UniProt Q9Y2K2)",100
"PRKCH (Homo sapiens, UniProt P24723)",98
"ROS1 (Homo sapiens, UniProt P08922)",100
"TIE1 (Homo sapiens, UniProt P35590)",100
"RET (Homo sapiens, UniProt P07949)",93

# Study 3
# Structure (SMILES): O=c1cc(-c2cccc3c2Sc2ccccc2S3)oc(N2CCOCC2)c1
# Observed: enzyme activity
# Mode: inhibitor
# Concentration: 0.5 µM
# Relative to: control
target,remaining activity
"EPHB4 (Homo sapiens, UniProt P54760)",94.3%
"RPS6KA6 (Homo sapiens, UniProt Q9UK32)",98.2%
"HIPK2 (Homo sapiens, UniProt Q9H2X6)",105%
"EPHB1 (Homo sapiens, UniProt P54762)",110%
"DYRK3 (Homo sapiens, UniProt O43781)",84.3%
"WNK3 (Homo sapiens, UniProt Q9BYP7)",109%
"ABL1 (Homo sapiens, UniProt P00519)",99.5%
"MAPKAPK3 (Homo sapiens, UniProt Q16644)",102%
"STK16 (Homo sapiens, UniProt O75716)",95.5%
"EPHA4 (Homo sapiens, UniProt P54764)",101%
"Cyclin-dependent kinase 6, with cyclin D3 (CDK6, Homo sapiens, UniProt Q00534)",106%
"Cyclin-dependent kinase 1, with cyclin B (CDK1, Homo sapiens, UniProt P06493)",88.5%
"MAP4K4 (Homo sapiens, UniProt O95819)",93.2%
"HIPK4 (Homo sapiens, UniProt Q8NE63)",100%
"TSSK2 (Homo sapiens, UniProt Q96PF2)",97.7%
"PHKG1 (Homo sapiens, UniProt Q16816)",106%
"RPS6KA5 (Homo sapiens, UniProt O75582)",117%
"PDPK1 (Homo sapiens, UniProt O15530)",104%
"Cyclin-dependent kinase 4, with cyclin D3 (CDK4, Homo sapiens, UniProt P11802)",99.2%

# Study 4
# Organism: Sarcocystis neurona
# Observed: parasite growth
# Concentration: 10 µM
# Setting: secondary screen
SMILES,inhibition [%]
CC(C)(C)NC(=O)[C@H]1CC[C@H]2[C@@H]3CC[C@H]4NC(=O)C=C[C@]4(C)[C@H]3CC[C@]12C,-4.4
Nc1ccn([C@H]2CC[C@@H](CO)O2)c(=O)n1,-25.5
CCN(CC)CC(=O)Nc1c(C)cccc1C,-51.2
OC[C@H]1O[C@@H](Oc2cc(O)cc(/C=C/c3ccc(O)cc3)c2)[C@H](O)[C@@H](O)[C@@H]1O,-20.1
O=c1n(CCCN2CCN(c3cccc(Cl)c3)CC2)nc2ccccn12,-54
Cc1cnc(NC(=O)C2=C(O)c3ccccc3S(=O)(=O)N2C)s1,-36

# Excerpt of the above (study 4):
SMILES,inhibition [%]
CC(C)(C)NC(=O)[C@H]1CC[C@H]2[C@@H]3CC[C@H]4NC(=O)C=C[C@]4(C)[C@H]3CC[C@]12C,-4.4
Nc1ccn([C@H]2CC[C@@H](CO)O2)c(=O)n1,-25.5
CCN(CC)CC(=O)Nc1c(C)cccc1C,-51.2
OC[C@H]1O[C@@H](Oc2cc(O)cc(/C=C/c3ccc(O)cc3)c2)[C@H](O)[C@@H](O)[C@@H]1O,-20.1
O=c1n(CCCN2CCN(c3cccc(Cl)c3)CC2)nc2ccccn12,-54
